Measured values pooled from the literature.
A part holds a random share of what one study measured.
Sequence of UniProt P62344 (whole entry, looked up): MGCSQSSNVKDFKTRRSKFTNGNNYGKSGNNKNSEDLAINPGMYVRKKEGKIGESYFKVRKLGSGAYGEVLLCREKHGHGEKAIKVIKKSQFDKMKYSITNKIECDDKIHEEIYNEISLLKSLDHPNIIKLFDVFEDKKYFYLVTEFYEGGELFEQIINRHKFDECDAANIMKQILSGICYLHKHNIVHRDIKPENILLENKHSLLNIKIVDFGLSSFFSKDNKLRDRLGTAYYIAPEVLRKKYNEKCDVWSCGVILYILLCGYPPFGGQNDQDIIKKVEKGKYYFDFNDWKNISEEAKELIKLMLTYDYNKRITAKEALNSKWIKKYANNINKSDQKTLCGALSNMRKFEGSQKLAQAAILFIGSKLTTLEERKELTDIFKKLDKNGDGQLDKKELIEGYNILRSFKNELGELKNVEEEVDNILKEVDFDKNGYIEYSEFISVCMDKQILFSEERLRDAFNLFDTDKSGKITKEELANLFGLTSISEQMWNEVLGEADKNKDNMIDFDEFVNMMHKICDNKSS
Sequence of UniProt Q6XUX3 (whole entry, looked up): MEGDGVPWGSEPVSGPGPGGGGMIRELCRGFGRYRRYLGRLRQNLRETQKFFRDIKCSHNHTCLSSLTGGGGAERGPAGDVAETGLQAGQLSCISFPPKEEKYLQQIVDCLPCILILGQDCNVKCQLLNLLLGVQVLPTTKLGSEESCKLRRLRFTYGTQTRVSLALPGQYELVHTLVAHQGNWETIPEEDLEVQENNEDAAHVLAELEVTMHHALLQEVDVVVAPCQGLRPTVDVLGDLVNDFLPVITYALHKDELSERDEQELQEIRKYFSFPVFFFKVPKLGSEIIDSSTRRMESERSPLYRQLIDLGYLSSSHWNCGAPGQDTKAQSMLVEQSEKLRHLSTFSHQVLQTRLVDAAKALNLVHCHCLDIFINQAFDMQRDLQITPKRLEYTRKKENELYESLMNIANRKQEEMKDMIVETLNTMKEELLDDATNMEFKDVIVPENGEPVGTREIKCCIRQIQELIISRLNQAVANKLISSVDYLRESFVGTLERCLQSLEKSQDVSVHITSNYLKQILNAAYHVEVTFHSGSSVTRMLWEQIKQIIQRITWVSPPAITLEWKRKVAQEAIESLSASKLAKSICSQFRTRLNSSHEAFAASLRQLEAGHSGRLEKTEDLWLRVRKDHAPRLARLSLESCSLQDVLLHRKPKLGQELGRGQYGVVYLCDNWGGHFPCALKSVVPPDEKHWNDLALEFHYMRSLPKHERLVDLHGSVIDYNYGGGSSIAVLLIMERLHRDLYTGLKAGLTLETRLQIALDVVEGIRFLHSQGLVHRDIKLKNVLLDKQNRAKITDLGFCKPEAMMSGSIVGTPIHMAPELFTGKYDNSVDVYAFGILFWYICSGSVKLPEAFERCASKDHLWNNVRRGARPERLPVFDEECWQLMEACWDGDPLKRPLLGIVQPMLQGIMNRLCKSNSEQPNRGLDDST
Sequence of UniProt O75716 (whole entry, looked up): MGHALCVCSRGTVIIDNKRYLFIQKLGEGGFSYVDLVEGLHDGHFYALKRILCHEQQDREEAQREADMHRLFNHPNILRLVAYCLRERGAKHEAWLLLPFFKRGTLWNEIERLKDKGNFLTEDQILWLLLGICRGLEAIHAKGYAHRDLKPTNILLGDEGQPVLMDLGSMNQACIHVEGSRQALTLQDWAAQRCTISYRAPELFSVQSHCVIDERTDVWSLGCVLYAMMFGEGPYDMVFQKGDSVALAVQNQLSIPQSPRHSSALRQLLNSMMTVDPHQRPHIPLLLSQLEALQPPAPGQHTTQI
Sequence of UniProt P46734 (whole entry, looked up): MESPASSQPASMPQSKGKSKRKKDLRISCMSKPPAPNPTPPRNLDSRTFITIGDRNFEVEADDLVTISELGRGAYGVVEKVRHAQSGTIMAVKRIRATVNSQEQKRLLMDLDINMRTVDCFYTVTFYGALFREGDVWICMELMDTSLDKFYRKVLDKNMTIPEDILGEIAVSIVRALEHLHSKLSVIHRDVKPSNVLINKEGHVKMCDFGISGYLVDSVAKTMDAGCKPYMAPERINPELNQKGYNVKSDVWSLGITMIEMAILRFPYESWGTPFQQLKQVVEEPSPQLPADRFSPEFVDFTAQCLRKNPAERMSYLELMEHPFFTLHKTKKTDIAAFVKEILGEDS

Series 1
Target: DNA polymerase theta, ATPase domain (POLQ, Homo sapiens, UniProt O75417)
Sequence of UniProt O75417 (whole entry, unmodified, looked up): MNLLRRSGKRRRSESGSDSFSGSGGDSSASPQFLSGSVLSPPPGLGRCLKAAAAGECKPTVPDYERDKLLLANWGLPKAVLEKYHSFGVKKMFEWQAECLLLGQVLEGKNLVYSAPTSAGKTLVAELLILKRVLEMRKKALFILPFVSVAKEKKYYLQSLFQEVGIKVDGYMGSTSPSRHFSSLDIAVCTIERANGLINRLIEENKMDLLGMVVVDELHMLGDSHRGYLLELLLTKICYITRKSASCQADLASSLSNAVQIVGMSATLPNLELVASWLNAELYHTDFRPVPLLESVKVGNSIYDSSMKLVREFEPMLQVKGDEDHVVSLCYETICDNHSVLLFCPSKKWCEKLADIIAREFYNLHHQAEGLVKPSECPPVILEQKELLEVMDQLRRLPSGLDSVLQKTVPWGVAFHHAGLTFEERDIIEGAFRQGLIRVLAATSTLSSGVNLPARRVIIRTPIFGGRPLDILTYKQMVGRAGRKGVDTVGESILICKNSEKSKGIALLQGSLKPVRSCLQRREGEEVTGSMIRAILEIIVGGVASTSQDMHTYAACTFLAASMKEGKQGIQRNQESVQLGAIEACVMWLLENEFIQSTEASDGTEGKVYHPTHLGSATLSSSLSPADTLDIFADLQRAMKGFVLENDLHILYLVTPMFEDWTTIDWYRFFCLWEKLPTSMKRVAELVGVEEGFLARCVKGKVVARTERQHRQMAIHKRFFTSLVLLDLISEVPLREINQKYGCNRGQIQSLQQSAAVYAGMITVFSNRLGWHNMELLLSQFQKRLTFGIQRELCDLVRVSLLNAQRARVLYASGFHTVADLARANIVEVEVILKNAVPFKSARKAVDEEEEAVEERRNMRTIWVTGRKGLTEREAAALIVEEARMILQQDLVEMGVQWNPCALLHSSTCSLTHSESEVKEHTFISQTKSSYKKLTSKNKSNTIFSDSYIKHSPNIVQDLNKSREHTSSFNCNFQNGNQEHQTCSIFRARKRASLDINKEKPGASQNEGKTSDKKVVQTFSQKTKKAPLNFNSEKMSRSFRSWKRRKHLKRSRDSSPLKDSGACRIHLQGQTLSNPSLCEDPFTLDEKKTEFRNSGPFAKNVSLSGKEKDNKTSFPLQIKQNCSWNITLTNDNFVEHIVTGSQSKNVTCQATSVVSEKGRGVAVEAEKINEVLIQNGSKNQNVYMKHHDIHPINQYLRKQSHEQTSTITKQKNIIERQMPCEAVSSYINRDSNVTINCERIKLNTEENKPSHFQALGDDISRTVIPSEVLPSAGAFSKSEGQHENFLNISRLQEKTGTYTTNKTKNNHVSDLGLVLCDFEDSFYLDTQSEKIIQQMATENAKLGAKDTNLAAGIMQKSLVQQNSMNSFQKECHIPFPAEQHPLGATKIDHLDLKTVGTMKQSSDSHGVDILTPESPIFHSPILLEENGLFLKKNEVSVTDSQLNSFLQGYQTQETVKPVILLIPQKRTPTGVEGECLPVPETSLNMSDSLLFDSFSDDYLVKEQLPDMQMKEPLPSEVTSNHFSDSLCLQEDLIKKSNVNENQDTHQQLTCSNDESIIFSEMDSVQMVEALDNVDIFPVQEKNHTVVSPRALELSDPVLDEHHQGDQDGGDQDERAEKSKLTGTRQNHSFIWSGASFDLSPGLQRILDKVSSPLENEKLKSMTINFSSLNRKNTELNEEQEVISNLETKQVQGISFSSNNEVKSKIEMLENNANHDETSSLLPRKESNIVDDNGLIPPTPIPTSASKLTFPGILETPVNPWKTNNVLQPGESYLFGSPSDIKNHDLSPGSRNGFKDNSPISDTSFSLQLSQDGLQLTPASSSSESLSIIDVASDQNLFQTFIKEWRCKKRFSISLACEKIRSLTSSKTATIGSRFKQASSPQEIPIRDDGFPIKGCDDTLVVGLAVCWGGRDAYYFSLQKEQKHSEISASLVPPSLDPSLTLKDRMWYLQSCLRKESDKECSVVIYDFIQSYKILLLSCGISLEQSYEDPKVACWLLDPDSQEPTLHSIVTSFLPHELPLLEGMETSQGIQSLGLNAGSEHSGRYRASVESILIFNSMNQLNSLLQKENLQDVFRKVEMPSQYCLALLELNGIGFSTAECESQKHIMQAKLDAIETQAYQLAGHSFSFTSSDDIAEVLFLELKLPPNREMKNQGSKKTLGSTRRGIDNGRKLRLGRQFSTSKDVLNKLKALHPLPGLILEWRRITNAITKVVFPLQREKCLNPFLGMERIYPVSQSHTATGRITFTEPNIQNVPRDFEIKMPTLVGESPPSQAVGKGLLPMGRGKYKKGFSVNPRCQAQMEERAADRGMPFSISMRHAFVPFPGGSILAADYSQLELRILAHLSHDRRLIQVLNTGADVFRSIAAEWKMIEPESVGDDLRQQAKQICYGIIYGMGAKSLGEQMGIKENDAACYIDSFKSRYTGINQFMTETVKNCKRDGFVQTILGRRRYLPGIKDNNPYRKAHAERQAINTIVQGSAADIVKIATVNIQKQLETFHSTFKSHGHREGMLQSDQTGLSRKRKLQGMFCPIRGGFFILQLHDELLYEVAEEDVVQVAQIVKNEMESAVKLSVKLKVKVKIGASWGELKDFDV
Effect on: enzyme activity
Action: inhibitor
Tested at: 77 µM
Baseline: untreated
`CC[N@@+]1(C)[C@@H]2CC[C@H]1C[C@@H](OC(=O)[C@]1(c3ccccc3)CC[C@H](C(=O)O[C@H]3C[C@H]4CC[C@@H](C3)[N@+]4(C)CC)c3ccccc31)C2` has a remaining activity of 102%.
The remaining activity of `O=C1C(Cl)=C(N2C(=O)CCC2=O)C(=O)c2ccccc21` is reported as 99.5%.
`Cc1cccc(Nc2nc(-c3ccncc3)cs2)c1` gave a remaining activity of 103%.
For `NC(=O)N1CCC(CC(=O)N2CCC([C@H]3c4ncc(Br)cc4CCc4cc(Cl)cc(Br)c43)CC2)CC1`, the remaining activity was 134%.
For `COc1cc(OC)c(NC(=O)Nc2cc(C)on2)cc1Cl`, the remaining activity was 90.2%.
For `CSc1cccc(Nc2ncc3cc(-c4c(Cl)cccc4Cl)c(=O)n(C)c3n2)c1`, the remaining activity was 104%.
With `CCCNC(C)(C)COC(=O)c1ccccc1` the remaining activity was 102%.
For `CCn1c(N)c(C(=O)NC)c(=O)c2ccc(C#C[C@@](C)(O)COC)nc21`, the remaining activity was 102%.
`C1=N/C2=N/c3ccc(OCCN4CCCC4)c(c3)COC/C=C/COCc3cccc(c3)C(=C1)N2` gave a remaining activity of 96.9%.
The remaining activity of `Nc1nc2c(ncn2[C@@H]2O[C@H](CO)[C@@H](O)[C@H]2O)c(=O)[nH]1` is reported as 94.4%.
`Cc1cccc(C2CN(C)CCc3c2cc(O)c(O)c3Cl)c1` (stereo not drawn) gave a remaining activity of 98.2%.

Series 2
SMILES: CC#CC(=O)N1CCC[C@H]1c1nc(-c2ccc(C(=O)Nc3ccccn3)cc2)c2c(N)nccn12
Effect on: enzyme activity
Action: inhibitor
Tested at: 1 µM
For STK32A (Homo sapiens, UniProt Q8WU08): inhibition read 0%.
It gave 4% for inhibition (MAP2K3 (Homo sapiens, UniProt P46734)).
CDPK1 (Plasmodium falciparum, UniProt P62344) — inhibition: 95%.
TTK (Homo sapiens, UniProt P33981) — inhibition: 0%.
For DSTYK (Homo sapiens, UniProt Q6XUX3): inhibition read 0%.
It gave 2% for inhibition (COQ8A (Homo sapiens, UniProt Q8NI60)).
For HIPK1 (Homo sapiens, UniProt Q86Z02): inhibition read 29%.
For SRMS (Homo sapiens, UniProt Q9H3Y6): inhibition read 64%.
The inhibition was 94% (ERBB2 (Homo sapiens, UniProt P04626)).
NUAK2 (Homo sapiens, UniProt Q9H093) — inhibition: 11%.

Series 3
SMILES: Nc1c(C(=O)NCc2ccc(C(=O)NCCCC3CCCCC3)cc2)cnn1-c1ccccc1
Technique: competition with immobilised ligand
Tested at: 0.1 µM
It gave 56% for remaining binding (DDR2 (Homo sapiens, UniProt Q16832); cell-free assay).
For STK16 (Homo sapiens, UniProt O75716); cell-free assay: remaining binding read 100%.
KIT (Homo sapiens, UniProt P10721, L576P); cell-free assay — remaining binding: 73%.
The remaining binding was 96% (STK38 (Homo sapiens, UniProt Q15208); cell-free assay).
For CDK18 (Homo sapiens, UniProt Q07002); cell-free assay: remaining binding read 100%.
It gave 100% for remaining binding (Tyrosine-protein kinase ABL1, phosphorylated (ABL1, Homo sapiens, UniProt P00519, E255K); binding).
For MAP3K11 (Homo sapiens, UniProt Q16584); cell-free assay: remaining binding read 76%.
For SRPK3 (Homo sapiens, UniProt Q9UPE1); cell-free assay: remaining binding read 100%.

Series 4
Target: Cyclin-dependent kinase 3, with cyclin E (CDK3, Homo sapiens, UniProt Q00526)
Sequence of UniProt Q00526 (whole entry, looked up): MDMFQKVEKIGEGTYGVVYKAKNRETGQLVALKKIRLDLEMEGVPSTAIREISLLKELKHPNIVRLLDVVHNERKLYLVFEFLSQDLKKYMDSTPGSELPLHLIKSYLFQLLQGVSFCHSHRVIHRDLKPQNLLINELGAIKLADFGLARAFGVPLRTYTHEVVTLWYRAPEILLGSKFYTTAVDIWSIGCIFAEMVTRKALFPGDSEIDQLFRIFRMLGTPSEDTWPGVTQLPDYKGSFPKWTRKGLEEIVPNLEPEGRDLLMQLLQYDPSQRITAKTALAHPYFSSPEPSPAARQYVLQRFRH
Effect on: enzyme activity
Action: inhibitor
Tested at: 0.5 µM
Baseline: control
`COc1cc2ncnc(Nc3ccc(F)c(Cl)c3)c2cc1OCCCN1CCOCC1` has a remaining activity of 95%.
The remaining activity of `CCOC(=O)c1c(C)[nH]c(/C=C2\C(=O)Nc3ccccc32)c1C` is reported as 94%.
`Cn1c2ccccc2c2c3c(c4c5ccccc5n(CCC#N)c4c21)CNC3=O` gave a remaining activity of 65.2%.
`Cc1nc(-c2ccccc2)c(-c2ccncc2)o1` has a remaining activity of 98.1%.
`CNC(=O)c1cc(Oc2ccc(NC(=O)Nc3ccc(Cl)c(C(F)(F)F)c3)cc2)ccn1` gave a remaining activity of 96.5%.
With `O=S(=O)(c1cccc2cnccc12)N1CCCNCC1` the remaining activity was 76.6%.
The remaining activity of `COc1cc2nccc(Oc3ccc(NC(=S)NC(=O)c4ccccc4C)cc3)c2cc1OC` is reported as 86.6%.
`Cc1ccc(Nc2nccc(N(C)c3ccc4c(C)n(C)nc4c3)n2)cc1S(N)(=O)=O` has a remaining activity of 93.5%.
`O=c1c2ccccc2[nH]c(=S)n1CCN1CCC(=C(c2ccc(F)cc2)c2ccc(F)cc2)CC1` has a remaining activity of 100%.
The remaining activity of `Nc1[nH]nc2nc3ccccc3nc12` is reported as 93.1%.
With `Cn1sc(=O)n(Cc2ccccc2)c1=O` the remaining activity was 78.1%.
`O=C1NC(=O)C(c2cn(CCCO)c3ncccc23)=C1c1cnccn1` gave a remaining activity of 89.4%.
`CN(C)c1ccc(C=C2C(=O)Nc3ccccc32)cc1` gave a remaining activity of 98.7%.
For `COc1ccc(C(=O)Nc2sc3c(c2C(N)=O)CCCC3)cc1OC`, the remaining activity was 104%.
For `O=C1NC(=O)C(c2cn(CCCn3ccnc3)c3ccccc23)=C1Nc1ccccc1`, the remaining activity was 90.9%.
The remaining activity of `C#Cc1cccc(Nc2ncnc3cc(OCCOC)c(OCCOC)cc23)c1` is reported as 95.6%.

Some of these lines once more (series 2):
For DSTYK (Homo sapiens, UniProt Q6XUX3): inhibition read 0%.
It gave 2% for inhibition (COQ8A (Homo sapiens, UniProt Q8NI60)).
For HIPK1 (Homo sapiens, UniProt Q86Z02): inhibition read 29%.
For SRMS (Homo sapiens, UniProt Q9H3Y6): inhibition read 64%.
